Measurements gathered from unrelated publications.
Numbered parts are unrelated; each lists some results of a single study. Positions count from the first letter of the parent shown.

Study 1
Target: Histone acetyltransferase KAT6A, winged helix 1, GST fusion (KAT6A, Homo sapiens, UniProt Q92794, residues 1-85)
Method: protein binding microarray
Form: double-stranded DNA, one strand shown
Matrix: in vitro
Tested at: not given
Setting: 8-mer, flanks averaged, mean of 2 arrays, mostly near background
Baseline: not given
Reading: higher = stronger binding
Measurement: E-score
Residues (chain): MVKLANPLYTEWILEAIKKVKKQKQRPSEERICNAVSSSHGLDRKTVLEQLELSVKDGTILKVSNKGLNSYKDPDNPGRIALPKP
GTCGAAAC: -0.154
CGGTACGA: 0.15
AGTCCTTA: -0.0436
CGAATGTA: -0.00464
GTAAGCGA: -0.0971
CTGCGAAG: -0.139

Study 2
Target: Ras GTPase-activating protein-binding protein 1, RRM domain (G3BP1, Homo sapiens, UniProt Q13283)
Chain of UniProt Q13283 (whole entry, looked up): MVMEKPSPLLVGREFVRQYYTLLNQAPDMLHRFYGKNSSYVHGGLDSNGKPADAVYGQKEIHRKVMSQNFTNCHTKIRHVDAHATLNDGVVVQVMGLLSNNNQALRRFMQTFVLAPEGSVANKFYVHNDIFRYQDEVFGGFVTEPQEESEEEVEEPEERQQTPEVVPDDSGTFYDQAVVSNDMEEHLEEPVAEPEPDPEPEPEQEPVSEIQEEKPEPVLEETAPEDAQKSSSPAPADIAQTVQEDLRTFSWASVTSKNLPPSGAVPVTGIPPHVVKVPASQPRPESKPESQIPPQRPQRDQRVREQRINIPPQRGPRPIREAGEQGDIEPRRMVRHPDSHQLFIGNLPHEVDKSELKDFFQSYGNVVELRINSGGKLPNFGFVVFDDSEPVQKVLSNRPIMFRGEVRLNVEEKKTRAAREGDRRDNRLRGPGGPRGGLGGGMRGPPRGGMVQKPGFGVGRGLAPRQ
Method: RNA Bind-n-Seq
Form: RNA
Matrix: in vitro
Tested at: 1 µM
Setting: whole 134-nt RNA, ends assumed
Together with: 150 mM KCl
Baseline: input library
Reading: higher = stronger binding
Measurement: log2 enrichment
Shared flanks, not repeated: GGGAGUUCUACAGUCCGACGAUC … UGGAAUUCUCGGGUGUCAAGG
ACCAUGCAGGUGGGCAAAAUUGGGAAGUGGGGCAAGGGGGGGAUAGGGAGGGGGGUAACACUUUGGGAACAGGUGGUCCCAGGUCGUUUC: -0.57
UCCUGUGCUACACAUCGUAUGUACCGAAUCGGCCCCCCGGGGCCCCCCGGCCCCCCGGGAAAGUAUUAUGUUACGCCGUUCGGAUCUGCA: -0.334
UGGCCCUGGUGGCAUGCGGAGAGGAAGAGGUGGCCUCAUGGAUCGUGGUGGUCCCGGUGGAAUGUUCAGAGGUGGCCGUGGUGGAGACAG: 0.94
GCAGGAAGUAAAAACAAAUGGAAAUGCUUCGCAUAGUGGCAGGGGUGGGGGUUGCUAAGGAAAGGGUGGGAUGGGAGUGGGUAAAGAGUU: 1.24
CUCAAGUCCUGUGCUACACAUCGUAUGUACCGAAUCGGGUGGGGUGGGGUGGGGAAAGUAUUAUGUUACGCCGUUCGGAUCUGCACUUCC: 0.539

Study 3
Target: CCNB1, cyclin fold, Cln2 fusion (human)
Method: yeast growth competition, sequencing
Matrix: yeast
Setting: weak parent motif
Baseline: not given
Reading: higher = stronger binding
Measurement: normalised enrichment score
Parent: CDC25A docking peptide (human); PPHRRRLLFACSP
S12T: 0.572
P1M: 0.236
P1K: 1.24

Single results of other studies
PhoQ, residues 284 288 289 292 302 303 AEGLLW  fold induction (PhoP, residues 12 14 15 18 19 SYFRT (Escherichia coli, UniProt P23836); Sort-seq, item: YFP reporter; E. coli; PhoQ-PhoP variant library, together with: 10 µM Mg2+; baseline: high Mg2+ state, higher = stronger signaling): 1.43

Repeated from above (study 3):
P1K: 1.24
P1M: 0.236
